Measured values from different studies.
Each numbered part is a random draw from the data of one study; scales do not carry over between parts. Values joined by “and” are separate records of one study, mostly repeats; a detail may differ.
Chain of UniProt O00506 (whole entry, looked up): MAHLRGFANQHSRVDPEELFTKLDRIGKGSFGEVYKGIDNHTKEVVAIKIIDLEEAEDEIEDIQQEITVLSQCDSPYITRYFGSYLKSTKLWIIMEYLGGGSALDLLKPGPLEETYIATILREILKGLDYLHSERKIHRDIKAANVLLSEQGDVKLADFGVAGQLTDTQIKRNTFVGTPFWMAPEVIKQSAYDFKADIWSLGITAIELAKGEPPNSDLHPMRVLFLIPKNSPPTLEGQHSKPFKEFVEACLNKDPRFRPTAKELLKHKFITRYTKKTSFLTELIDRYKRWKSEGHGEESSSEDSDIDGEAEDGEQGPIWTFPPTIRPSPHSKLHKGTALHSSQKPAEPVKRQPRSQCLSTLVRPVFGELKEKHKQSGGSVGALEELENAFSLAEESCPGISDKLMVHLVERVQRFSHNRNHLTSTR
Chain of UniProt Q9BUB5 (whole entry, looked up): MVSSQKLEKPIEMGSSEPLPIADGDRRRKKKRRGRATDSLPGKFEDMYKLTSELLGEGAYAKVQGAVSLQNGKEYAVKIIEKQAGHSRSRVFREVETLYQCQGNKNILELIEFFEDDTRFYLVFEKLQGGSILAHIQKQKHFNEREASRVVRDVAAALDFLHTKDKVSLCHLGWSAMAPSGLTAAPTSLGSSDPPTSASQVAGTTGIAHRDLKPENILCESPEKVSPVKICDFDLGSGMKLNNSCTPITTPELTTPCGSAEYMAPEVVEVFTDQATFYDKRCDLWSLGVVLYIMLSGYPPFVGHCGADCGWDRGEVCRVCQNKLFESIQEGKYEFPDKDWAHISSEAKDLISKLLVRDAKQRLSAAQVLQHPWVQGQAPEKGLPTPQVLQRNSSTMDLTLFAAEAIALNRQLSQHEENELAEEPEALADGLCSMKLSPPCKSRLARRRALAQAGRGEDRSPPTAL
Chain of UniProt Q9P2K8 (whole entry, unmodified, looked up): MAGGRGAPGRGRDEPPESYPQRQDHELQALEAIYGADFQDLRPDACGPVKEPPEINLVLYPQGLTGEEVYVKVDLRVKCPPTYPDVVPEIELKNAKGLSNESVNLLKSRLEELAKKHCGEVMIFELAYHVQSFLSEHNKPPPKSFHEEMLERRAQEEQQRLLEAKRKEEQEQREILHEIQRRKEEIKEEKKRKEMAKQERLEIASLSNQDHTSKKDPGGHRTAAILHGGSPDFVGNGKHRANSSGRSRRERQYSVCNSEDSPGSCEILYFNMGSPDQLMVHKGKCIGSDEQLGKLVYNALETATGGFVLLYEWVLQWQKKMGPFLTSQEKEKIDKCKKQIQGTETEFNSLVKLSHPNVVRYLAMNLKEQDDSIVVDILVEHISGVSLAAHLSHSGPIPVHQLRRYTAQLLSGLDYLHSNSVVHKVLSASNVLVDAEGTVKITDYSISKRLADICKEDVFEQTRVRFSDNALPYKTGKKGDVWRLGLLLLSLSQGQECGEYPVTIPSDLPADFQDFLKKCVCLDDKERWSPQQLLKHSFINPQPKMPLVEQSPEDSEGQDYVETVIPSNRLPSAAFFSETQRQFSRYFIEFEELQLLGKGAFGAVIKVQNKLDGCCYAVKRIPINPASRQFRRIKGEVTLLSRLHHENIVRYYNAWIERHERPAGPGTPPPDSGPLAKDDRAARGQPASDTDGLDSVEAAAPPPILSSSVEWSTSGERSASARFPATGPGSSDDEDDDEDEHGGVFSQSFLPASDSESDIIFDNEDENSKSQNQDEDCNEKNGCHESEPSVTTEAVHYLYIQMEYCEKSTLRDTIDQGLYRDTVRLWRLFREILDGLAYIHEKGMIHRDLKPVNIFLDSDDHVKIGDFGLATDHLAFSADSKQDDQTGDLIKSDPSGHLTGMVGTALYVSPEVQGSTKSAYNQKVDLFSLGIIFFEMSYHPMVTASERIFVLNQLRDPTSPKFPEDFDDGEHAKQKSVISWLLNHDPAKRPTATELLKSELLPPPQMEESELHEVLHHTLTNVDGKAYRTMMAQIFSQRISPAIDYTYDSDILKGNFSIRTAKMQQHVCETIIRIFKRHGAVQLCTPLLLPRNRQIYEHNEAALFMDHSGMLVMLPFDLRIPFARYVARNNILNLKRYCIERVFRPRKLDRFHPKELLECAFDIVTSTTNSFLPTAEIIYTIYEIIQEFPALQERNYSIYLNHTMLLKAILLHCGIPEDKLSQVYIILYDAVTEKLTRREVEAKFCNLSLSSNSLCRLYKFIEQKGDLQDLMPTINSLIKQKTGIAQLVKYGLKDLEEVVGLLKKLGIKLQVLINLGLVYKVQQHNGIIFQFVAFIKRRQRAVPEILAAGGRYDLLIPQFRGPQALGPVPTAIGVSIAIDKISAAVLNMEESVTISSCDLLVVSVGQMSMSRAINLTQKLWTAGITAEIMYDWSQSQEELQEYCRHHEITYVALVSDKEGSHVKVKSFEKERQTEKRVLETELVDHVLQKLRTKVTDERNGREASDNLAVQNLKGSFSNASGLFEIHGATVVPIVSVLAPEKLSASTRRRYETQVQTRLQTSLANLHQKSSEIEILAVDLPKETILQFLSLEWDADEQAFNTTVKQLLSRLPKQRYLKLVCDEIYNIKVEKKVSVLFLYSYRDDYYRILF

Block 1
SMILES: CC#CC(=O)N1CCC[C@H]1c1nc(-c2ccc(C(=O)Nc3ccccn3)cc2)c2c(N)nccn12
Action: inhibitor
Concentration: 1 µM
target | read-out | inhibition
EIF2AK4 (Homo sapiens, UniProt Q9P2K8, S808G) | – | 12%
Tyrosine-protein kinase ABL1, phosphorylated (ABL1, Homo sapiens, UniProt P00519, T315I) | enzyme activity | 0%
Tyrosine-protein kinase ABL1, phosphorylated (ABL1, Homo sapiens, UniProt P00519, F317L) | enzyme activity | 19%
DSTYK (Homo sapiens, UniProt Q6XUX3) | enzyme activity | 0%
STK4 (Homo sapiens, UniProt Q13043) | enzyme activity | 0%
AKT1 (Homo sapiens, UniProt P31749) | enzyme activity | 0%
TTK (Homo sapiens, UniProt P33981) | enzyme activity | 0%
EPHA4 (Homo sapiens, UniProt P54764) | enzyme activity | 0%

Block 2
SMILES: Nc1c(C(=O)NCc2ccc(C(=O)NCCCC3CCCCC3)cc2)cnn1-c1ccccc1
Read-out: cell-free assay
Technique: competition with immobilised ligand
Concentration: 0.1 µM
target | remaining binding
IRAK3 (Homo sapiens, UniProt Q9Y616) | 94%
STK25 (Homo sapiens, UniProt O00506) | 82%
MKNK1 (Homo sapiens, UniProt Q9BUB5) | 82%
ULK1 (Homo sapiens, UniProt O75385) | 100%
Tyrosine-protein kinase JAK1, JH1 (JAK1, Homo sapiens, UniProt P23458) | 100%

Block 3
Target: DNA polymerase theta, ATPase domain (POLQ, Homo sapiens, UniProt O75417)
Chain of UniProt O75417 (whole entry, unmodified, looked up): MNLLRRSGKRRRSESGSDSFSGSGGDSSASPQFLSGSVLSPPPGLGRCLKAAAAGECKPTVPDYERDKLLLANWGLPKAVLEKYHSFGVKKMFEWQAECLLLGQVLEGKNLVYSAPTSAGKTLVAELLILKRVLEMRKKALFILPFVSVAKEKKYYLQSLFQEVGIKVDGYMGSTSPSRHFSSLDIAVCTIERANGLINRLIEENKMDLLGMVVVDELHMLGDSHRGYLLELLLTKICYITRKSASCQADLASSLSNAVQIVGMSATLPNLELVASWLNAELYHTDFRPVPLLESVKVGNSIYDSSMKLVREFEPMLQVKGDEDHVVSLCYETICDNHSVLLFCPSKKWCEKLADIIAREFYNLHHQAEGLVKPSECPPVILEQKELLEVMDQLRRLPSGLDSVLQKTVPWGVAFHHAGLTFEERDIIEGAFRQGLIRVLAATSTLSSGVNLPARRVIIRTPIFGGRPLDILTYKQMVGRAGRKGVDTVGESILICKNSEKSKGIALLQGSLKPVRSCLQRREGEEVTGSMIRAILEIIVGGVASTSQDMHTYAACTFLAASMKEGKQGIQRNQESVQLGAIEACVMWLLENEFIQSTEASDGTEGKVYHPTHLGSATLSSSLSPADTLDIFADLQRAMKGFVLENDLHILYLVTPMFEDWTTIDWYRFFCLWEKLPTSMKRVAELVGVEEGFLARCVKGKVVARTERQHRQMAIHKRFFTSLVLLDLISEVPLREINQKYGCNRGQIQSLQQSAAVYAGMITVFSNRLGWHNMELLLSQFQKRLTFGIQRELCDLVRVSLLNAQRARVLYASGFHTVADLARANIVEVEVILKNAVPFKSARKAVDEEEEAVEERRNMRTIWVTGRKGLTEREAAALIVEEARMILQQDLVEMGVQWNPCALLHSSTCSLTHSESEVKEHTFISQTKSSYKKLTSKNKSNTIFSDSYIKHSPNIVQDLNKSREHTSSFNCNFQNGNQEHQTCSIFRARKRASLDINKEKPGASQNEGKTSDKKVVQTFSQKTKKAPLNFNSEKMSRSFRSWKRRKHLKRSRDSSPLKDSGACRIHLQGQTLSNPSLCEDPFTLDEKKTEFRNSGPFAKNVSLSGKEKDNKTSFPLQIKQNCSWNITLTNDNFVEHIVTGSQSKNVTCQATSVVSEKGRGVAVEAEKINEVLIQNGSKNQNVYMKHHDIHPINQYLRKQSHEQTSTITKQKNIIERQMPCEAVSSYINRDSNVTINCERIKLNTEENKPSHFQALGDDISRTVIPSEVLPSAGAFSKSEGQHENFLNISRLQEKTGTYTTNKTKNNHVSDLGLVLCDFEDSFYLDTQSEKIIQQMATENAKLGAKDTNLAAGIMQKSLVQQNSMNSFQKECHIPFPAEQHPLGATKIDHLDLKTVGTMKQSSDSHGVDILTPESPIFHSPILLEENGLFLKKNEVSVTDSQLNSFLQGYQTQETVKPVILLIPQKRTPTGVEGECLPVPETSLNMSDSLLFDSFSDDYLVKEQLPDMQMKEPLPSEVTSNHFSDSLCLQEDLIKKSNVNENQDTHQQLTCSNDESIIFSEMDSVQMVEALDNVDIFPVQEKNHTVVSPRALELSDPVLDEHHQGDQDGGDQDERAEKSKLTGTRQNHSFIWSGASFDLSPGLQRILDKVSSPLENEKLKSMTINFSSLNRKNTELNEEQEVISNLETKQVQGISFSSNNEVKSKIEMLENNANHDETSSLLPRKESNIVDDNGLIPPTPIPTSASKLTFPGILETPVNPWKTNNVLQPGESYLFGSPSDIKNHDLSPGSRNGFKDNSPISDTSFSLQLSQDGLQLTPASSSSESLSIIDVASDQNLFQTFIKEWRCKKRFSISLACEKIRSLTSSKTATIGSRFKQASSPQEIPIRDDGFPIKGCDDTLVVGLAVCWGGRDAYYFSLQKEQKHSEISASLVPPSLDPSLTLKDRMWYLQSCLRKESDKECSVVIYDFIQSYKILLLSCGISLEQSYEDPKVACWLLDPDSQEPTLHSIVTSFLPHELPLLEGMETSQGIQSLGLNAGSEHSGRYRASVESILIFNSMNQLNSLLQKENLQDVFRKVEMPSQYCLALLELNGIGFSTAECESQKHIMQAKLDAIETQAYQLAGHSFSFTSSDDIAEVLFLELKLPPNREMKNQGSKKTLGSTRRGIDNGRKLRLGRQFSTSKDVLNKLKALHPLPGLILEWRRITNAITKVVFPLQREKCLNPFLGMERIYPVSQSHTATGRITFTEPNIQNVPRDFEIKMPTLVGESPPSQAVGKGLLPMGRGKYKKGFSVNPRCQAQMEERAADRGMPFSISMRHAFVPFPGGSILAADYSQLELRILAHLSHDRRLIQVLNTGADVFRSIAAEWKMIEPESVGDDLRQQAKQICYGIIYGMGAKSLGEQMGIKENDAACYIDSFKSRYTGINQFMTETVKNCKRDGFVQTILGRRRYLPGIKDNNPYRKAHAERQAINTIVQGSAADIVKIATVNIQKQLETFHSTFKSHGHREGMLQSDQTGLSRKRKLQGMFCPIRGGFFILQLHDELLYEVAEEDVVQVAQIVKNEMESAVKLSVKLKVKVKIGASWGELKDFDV
Read-out: enzyme activity
Action: inhibitor
Concentration: 77 µM
Relative to: untreated
Structure (SMILES) | remaining activity
Cc1nc(Nc2n[nH]c3c2CN(C(=O)N[C@H](CN(C)C)c2ccccc2)C3(C)C)c2sccc2n1 | 103%
COc1ccc(C(=O)c2ccccc2)c(O)c1 | 103%
CCOc1ccc(NC(C)=O)cc1 | 101% and 91.7%
COc1nccc(-c2c(-c3ccc(F)cc3)ncn2C2CCNCC2)n1 | 112% and 118% and 119%
O=C(Nc1nc2cccc(-c3ccc(CN4CCS(=O)(=O)CC4)cc3)n2n1)C1CC1 | 89.1%
Cc1cccc(C2CN(C)CCc3c2cc(O)c(O)c3Cl)c1 (centres unmarked) | 98.2%
CCCc1cc(=O)[nH]c(=S)[nH]1 | 109% and 98.8%
COc1cc(OC)c(NC(=O)Nc2cc(C)on2)cc1Cl | 90.2%

Block 4
Target: Serine/threonine-protein kinase 25 (STK25, Homo sapiens, UniProt O00506)
Read-out: enzyme activity
Action: inhibitor
Concentration: 0.5 µM
Relative to: control
SMILES | remaining activity
Cc1ccc(NC(=O)c2ccc(CN3CCN(C)CC3)cc2)cc1Nc1nc(-c2cccnc2)cs1 | 95.5%
Cn1c2ccccc2c2c3c(c4c5ccccc5n(CCC#N)c4c21)CNC3=O | 83.9%
Cc1nc(-c2ccccc2)c(-c2ccncc2)o1 | 104%
O=C(O)c1ccc2c3c1cccc3c(=O)n1c3ccccc3nc21 | 104%
Oc1ccc(-c2nc(-c3ccncc3)c(-c3ccc(F)cc3)[nH]2)cc1 | 115%
COc1ccc(C(=O)Nc2sc3c(c2C(N)=O)CCCC3)cc1OC | 91.7%
O=C(CCCc1ccc(-c2ccccc2F)cc1)Nc1ccc(O)cc1 | 105%
CCOC(=O)c1c(C)[nH]c(/C=C2\C(=O)Nc3ccccc32)c1C | 98.5%
O=c1c2ccccc2[nH]c(=S)n1CCN1CCC(=C(c2ccc(F)cc2)c2ccc(F)cc2)CC1 | 96.6%
Cn1sc(=O)n(Cc2ccccc2)c1=O | 96.2%
Nc1[nH]nc2nc3ccccc3nc12 | 99.9%
Nc1ccc2ncnc(NCCc3ccc(Oc4ccccc4)cc3)c2c1 | 116%
Nc1ncnc2n[nH]c(Nc3ccc(F)cc3)c12 | 112%
CN(C)c1ccc(C=C2C(=O)Nc3ccccc32)cc1 | 90.2%

Some of these lines once more (block 1):
target | read-out | inhibition
EIF2AK4 (Homo sapiens, UniProt Q9P2K8, S808G) | – | 12%
Tyrosine-protein kinase ABL1, phosphorylated (ABL1, Homo sapiens, UniProt P00519, F317L) | enzyme activity | 19%
AKT1 (Homo sapiens, UniProt P31749) | enzyme activity | 0%
EPHA4 (Homo sapiens, UniProt P54764) | enzyme activity | 0%
